Assay results gathered from unrelated publications.
Parts stem from different laboratories: compare values within a part only. Substitutions count along the parent as printed.

Sample 1 — target: CCNE2, cyclin fold, Cln2 fusion (human); method: yeast growth competition, sequencing; matrix: yeast; notes: strong parent motif; baseline: not given; direction: higher = stronger binding; quantity: normalised enrichment score
Starting sequence: RBL2 docking peptide (human); STTRRRLFVENDS; partner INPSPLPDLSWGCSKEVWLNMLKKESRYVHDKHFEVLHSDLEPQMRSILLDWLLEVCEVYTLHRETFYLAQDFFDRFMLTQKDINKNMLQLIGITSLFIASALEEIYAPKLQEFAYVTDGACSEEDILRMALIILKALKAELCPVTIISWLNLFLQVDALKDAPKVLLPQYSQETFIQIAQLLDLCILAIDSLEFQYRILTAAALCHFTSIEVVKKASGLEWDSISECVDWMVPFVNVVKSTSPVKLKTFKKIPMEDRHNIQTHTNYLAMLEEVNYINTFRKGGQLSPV
STTRRRLFVANDS [E10A]: 2.88
STTRRRLFVHNDS [E10H]: 2.83
STTRRRLFVENWS [D12W]: 2.94
STTRRRLFVENVS [D12V]: 3.64
STWRRRLFVENDS [T3W]: 4.3
STTRRRLLVENDS [F8L]: 0.705
STTRRRLFVENDA [S13A]: 3.97
STTRLRLFVENDS [R5L]: 0.179
KTTRRRLFVENDS [S1K]: 4.69
SRTRRRLFVENDS [T2R]: 4.59
SITRRRLFVENDS [T2I]: 2.96
STNRRRLFVENDS [T3N]: 0.000219
STTRMRLFVENDS [R5M]: 0.417
STTRIRLFVENDS [R5I]: 0.102
STTVRRLFVENDS [R4V]: 3.53
STTRRRLFVENES [D12E]: 4.07

Sample 2 — method: DHFR PCA, deep sequencing; matrix: yeast; with: (+)-ABA 0.0091 µM; baseline: wild-type fitted maximum; direction: higher = stronger binding; quantity: relative binding score
Target: ABI1, truncated, D143A, DHFR fusion (Arabidopsis thaliana)
Notes: methotrexate growth selection, single substitutions
Starting sequence: PYL1, truncated, DHFR fusion (Arabidopsis thaliana); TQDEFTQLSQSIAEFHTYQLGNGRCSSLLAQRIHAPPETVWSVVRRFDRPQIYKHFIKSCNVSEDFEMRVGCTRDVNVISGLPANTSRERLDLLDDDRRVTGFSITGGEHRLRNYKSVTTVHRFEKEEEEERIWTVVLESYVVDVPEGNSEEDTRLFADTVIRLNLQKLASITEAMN
N85P: -0.302%
L93P: 6.45%
N149L: 27.8%
A13G: 9.91%
Q19L: -0.2%
N165W: -0.386%
T120V: -9.08%
T160R: -2.23%
I105A: -1.05%
S26M: 3.48%
E14F: 2.51%
Q51I: -5.29%
V100I: 13.4%

Sample 3 — target: OGT, full length, His-tagged (human); method: phage display, sequencing; matrix: in vitro; tested at: 1 µg OGT; baseline: input library; direction: higher = stronger binding; quantity: fold enrichment; starting sequence: peptide; VAYPNSYMPKYQIST
Notes: single substitutions, 15-mer displayed peptide, unchanged parent 6.14
VAYPNSYMPKYAIST [Q12A]: 0.624 fold
VAYPNSYMPKYQVST [I13V]: 0.679 fold
VAYPNSYMPKWQIST [Y11W]: 0.932 fold
VAYPNSYMPTYQIST [K10T]: 0.879 fold
VAYPNSYMPKYQKST [I13K]: 0.625 fold
VAYPNSYMRKYQIST [P9R]: 0.44 fold
VAYPNSYMPKYHIST [Q12H]: 0.747 fold
VALPNSYMPKYQIST [Y3L]: 4.81 fold
VAYPNSYTPKYQIST [M8T]: 1.15 fold
VAYPNSYMPYYQIST [K10Y]: 2.73 fold
VAYPNSYMPKYQISV [T15V]: 9.41 fold
VAYKNSYMPKYQIST [P4K]: 5.69 fold

Sample 4 — method: RNA Bind-n-Seq; form: RNA; matrix: in vitro; tested at: 365 nM; baseline: no-protein control; direction: higher = stronger binding; quantity: RBNS enrichment (R)
Target: RNA binding protein fox-1 homolog 2, RRM domain, GST-SBP tag (RBFOX2, Homo sapiens, UniProt O43251-10, residues 100-194)
Notes: natural RNA segment, single round, ends assumed
All sequences stand within: GGGAGUUCUACAGUCCGACGAUC … UGGAAUUCUCGGGUGCCAA
Target sequence (chain): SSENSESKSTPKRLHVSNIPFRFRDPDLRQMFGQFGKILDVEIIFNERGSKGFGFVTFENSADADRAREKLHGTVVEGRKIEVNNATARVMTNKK
GGAGGCAACAGGGAAAAAAUCUCAUCUUCUUUUCCAGUAGAAAAUAGUUUGUGAAAUGAUGAGGGCAUUUUAUCUGCUUGCUGUGACCAGCGUGUGUACACAUAAACCUU: 0.564
AAAUAAAUAUAUAUUUUAAGUUUAAAGACAAAUGAAACCAGACAAAACAAUCCCCAUCAGGUAGUUGUCCAACCCCCAGCUGGGUUCAACCCUCUCAUUACCCACCUGAC: 0.428
UAAAAACUUGUCCUUUUCCUUAAAUCAAAGUAGGACUCGAGUCCUCGUUUUUCACGCUGGCUUUGUUUCAGAGGUAUACUGACUCCAGUGGUGUCAGGAUGAGGUGGCCC: 0.307
UACACCCUUCAUGGAAGUGUUGACAUGUGCCAAAGGGUACUCUGCACAUCACUUCCUUCCUGAAAGCCUAAGAGUGUGUAUGUUUGUGUAUGCACAGAGCAGACAGACUA: 0.268
GGGGCCUUUCUUUAACUGCCUUCCUGGCUUAGCUCAGAUGGCAGAUGAGAGUGUAGUCAAGGGCCUGGGCACAGGAGGGAGAGCUGCAGAGUGUCCUGCCUGCCUUGGCU: 0.407
UUCACAGCAGGCCAGCUGCAGUGACUUGUCAUCAAGAGUCACCUCAGCUGCGCCCCCCUCCCAUCCUUUCCUAUGAGAAGCCACUGCUUUGGGGGCGCCGGCUAGAAAAA: 0.275
GGAGCUCACUGUGGGAUGGGGUUGACCUCUGCCGCCUGCCUGGGUAUCUGGGCCUGGCCAUGGCUGUGUUCUUCAUGUGUUGAUUUUAUUUGACCCCUGGAGUGGUGGGU: 0.658
AAACCCUUUGAAUGAAAUUGUGGCACAAAAUCUGUUCAGGUUGGUGUACCGUGUAAAGUGGGGAUGGGGUAAAAGUGGUUAACGUACUGUUGGAUCAACAAAUAAAGGUU: 1.18

Excerpt of the above (sample 3):
VAYPNSYMPKYQVST [I13V]: 0.679 fold
VAYKNSYMPKYQIST [P4K]: 5.69 fold
VAYPNSYMPKYAIST [Q12A]: 0.624 fold
VALPNSYMPKYQIST [Y3L]: 4.81 fold
VAYPNSYMPKYQKST [I13K]: 0.625 fold
VAYPNSYMPYYQIST [K10Y]: 2.73 fold
